Results collected from several papers.
Each numbered part is a random draw from the data of one study; scales do not carry over between parts.
Chain of UniProt Q16620 (whole entry, looked up): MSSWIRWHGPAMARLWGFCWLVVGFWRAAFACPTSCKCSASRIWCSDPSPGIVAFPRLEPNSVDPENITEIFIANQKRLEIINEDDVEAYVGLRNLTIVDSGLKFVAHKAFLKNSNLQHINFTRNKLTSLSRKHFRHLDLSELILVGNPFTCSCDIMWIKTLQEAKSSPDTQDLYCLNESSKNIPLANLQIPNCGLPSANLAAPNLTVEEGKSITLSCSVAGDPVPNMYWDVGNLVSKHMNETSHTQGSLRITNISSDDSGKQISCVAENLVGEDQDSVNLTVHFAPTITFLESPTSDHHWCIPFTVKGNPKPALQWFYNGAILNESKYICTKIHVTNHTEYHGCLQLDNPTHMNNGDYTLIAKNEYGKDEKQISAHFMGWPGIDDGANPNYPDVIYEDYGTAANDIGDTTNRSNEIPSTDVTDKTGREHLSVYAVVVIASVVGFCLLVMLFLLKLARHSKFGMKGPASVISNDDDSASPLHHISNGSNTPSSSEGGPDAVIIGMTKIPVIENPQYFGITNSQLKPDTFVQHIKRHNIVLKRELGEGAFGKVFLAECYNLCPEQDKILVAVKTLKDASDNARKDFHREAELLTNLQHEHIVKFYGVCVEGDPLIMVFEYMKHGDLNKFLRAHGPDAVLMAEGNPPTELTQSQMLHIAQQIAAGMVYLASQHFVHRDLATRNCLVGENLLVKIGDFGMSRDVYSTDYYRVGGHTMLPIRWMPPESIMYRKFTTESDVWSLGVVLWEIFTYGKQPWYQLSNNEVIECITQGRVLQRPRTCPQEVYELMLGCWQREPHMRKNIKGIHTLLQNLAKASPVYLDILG
Chain of UniProt Q02156 (whole entry, looked up): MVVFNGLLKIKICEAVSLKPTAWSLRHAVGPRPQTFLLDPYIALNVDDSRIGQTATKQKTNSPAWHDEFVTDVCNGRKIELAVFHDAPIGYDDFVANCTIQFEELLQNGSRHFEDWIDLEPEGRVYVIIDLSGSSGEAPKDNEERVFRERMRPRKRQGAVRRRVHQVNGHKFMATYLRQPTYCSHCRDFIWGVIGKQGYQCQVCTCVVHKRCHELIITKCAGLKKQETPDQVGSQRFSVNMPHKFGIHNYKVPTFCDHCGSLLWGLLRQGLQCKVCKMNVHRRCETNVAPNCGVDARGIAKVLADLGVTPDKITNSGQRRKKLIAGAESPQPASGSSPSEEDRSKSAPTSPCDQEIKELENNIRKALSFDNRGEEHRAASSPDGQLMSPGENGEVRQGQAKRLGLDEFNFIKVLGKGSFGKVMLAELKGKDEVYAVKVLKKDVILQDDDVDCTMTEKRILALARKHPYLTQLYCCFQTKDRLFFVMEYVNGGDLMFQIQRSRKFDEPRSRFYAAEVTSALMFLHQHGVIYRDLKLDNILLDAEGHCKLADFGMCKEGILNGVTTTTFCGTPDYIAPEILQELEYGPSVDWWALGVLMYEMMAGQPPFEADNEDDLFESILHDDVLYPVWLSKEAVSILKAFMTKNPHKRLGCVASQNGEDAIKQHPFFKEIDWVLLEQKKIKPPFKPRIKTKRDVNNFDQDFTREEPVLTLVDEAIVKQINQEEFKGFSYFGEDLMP
Chain of UniProt P21860 (whole entry, looked up): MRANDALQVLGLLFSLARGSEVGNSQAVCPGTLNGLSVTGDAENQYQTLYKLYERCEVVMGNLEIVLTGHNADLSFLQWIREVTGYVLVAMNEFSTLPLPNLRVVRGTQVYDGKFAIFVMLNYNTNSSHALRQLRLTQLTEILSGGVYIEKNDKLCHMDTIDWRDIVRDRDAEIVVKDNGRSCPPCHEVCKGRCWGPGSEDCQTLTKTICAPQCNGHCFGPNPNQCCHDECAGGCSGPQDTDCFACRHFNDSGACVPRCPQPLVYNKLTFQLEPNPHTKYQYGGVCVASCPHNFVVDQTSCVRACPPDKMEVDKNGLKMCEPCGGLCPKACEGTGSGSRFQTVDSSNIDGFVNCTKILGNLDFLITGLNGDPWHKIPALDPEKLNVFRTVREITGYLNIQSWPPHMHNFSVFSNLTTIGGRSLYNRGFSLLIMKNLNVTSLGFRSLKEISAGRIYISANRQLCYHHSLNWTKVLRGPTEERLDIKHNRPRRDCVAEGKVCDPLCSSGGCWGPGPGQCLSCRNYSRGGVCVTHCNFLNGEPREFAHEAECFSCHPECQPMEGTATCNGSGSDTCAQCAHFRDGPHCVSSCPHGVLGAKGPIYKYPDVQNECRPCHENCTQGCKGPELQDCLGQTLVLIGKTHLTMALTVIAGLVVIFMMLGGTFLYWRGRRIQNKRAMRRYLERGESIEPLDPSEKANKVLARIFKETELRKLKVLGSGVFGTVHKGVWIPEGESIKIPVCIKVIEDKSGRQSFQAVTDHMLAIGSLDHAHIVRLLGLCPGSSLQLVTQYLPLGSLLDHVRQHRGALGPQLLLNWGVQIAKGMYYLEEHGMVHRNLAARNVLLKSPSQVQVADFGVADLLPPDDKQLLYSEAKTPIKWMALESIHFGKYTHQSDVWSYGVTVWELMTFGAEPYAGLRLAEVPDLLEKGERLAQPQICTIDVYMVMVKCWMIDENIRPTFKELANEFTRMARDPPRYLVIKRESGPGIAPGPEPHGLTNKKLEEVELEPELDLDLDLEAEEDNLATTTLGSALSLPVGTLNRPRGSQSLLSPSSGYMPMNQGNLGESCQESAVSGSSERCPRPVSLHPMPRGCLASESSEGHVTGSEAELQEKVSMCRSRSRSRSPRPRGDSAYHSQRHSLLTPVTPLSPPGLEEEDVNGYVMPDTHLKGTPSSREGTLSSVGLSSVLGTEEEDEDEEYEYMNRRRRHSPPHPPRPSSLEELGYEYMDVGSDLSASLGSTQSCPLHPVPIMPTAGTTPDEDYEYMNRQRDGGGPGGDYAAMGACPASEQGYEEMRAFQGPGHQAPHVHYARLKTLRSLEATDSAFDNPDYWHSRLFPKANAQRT
Chain of UniProt O00750 (whole entry, looked up): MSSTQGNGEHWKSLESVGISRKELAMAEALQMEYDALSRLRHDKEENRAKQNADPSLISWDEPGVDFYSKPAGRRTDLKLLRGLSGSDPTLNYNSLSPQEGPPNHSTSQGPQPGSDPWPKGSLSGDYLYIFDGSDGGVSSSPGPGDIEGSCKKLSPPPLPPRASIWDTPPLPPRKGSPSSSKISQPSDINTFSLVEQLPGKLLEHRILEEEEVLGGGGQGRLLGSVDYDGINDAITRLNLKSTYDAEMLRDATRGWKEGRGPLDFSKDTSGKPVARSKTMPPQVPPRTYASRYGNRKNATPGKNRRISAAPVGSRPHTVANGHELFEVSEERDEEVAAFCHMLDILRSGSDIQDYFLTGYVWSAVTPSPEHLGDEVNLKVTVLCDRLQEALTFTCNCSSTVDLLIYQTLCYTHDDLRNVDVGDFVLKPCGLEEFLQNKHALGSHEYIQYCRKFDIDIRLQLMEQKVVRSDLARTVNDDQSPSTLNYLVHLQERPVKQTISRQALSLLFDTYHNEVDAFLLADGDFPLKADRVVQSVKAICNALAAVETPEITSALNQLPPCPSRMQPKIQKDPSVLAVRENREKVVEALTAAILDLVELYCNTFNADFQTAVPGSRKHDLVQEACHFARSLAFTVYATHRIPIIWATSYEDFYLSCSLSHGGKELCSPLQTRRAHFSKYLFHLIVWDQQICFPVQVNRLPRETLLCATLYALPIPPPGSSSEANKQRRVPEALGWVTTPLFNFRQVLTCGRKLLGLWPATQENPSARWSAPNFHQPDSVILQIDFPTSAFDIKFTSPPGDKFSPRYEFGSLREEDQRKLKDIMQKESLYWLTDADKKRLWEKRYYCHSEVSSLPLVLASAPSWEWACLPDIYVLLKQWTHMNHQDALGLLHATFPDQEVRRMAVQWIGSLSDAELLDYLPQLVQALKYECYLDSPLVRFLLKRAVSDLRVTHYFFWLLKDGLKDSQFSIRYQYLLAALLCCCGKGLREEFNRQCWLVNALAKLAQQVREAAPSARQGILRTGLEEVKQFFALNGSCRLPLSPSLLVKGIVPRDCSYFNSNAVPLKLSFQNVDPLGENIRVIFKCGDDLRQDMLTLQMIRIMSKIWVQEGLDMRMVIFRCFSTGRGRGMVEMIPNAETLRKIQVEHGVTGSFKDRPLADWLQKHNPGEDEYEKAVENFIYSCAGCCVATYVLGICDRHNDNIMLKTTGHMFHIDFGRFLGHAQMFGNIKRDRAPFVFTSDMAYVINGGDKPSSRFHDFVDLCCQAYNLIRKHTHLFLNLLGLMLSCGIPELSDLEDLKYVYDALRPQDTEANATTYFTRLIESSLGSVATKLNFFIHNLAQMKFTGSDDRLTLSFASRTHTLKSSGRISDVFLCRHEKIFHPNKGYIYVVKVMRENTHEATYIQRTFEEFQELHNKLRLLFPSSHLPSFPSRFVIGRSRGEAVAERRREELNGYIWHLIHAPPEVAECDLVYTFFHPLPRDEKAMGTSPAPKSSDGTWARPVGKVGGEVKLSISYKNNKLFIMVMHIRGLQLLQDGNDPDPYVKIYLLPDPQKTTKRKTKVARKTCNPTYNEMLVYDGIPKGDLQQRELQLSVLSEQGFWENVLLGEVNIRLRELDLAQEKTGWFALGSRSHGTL

Sample 1
Compound: CO[C@@H](C)c1c(Nc2ccc([C@H](N(C)C(=O)C3CCS(=O)(=O)CC3)C(F)(F)F)cc2)cnc2cc(Cl)nn12
Observed: cell-free assay
Method: competition with immobilised ligand
Concentration: 1 µM
| target | remaining binding |
| --- | --- |
| SRPK3 (Homo sapiens, UniProt Q9UPE1) | 100% |
| DAPK1 (Homo sapiens, UniProt P53355) | 88% |
| ERBB3 (Homo sapiens, UniProt P21860) | 100% |
| PAK6 (Homo sapiens, UniProt Q9NQU5) | 100% |
| PIK3C2B (Homo sapiens, UniProt O00750) | 97% |
| PKN1 (Homo sapiens, UniProt Q16512) | 100% |
| Tyrosine-protein kinase ABL1, non-phosphorylated (ABL1, Homo sapiens, UniProt P00519, F317L) | 100% |
| PRKCE (Homo sapiens, UniProt Q02156) | 100% |
| CDK14 (Homo sapiens, UniProt O94921) | 100% |
| NTRK2 (Homo sapiens, UniProt Q16620) | 100% |
| CAMK2D (Homo sapiens, UniProt Q13557) | 86% |
| ROCK2 (Homo sapiens, UniProt O75116) | 100% |

Sample 2
Target: Death-associated protein kinase 3 (DAPK3, Homo sapiens, UniProt O43293)
Chain of UniProt O43293 (whole entry, looked up): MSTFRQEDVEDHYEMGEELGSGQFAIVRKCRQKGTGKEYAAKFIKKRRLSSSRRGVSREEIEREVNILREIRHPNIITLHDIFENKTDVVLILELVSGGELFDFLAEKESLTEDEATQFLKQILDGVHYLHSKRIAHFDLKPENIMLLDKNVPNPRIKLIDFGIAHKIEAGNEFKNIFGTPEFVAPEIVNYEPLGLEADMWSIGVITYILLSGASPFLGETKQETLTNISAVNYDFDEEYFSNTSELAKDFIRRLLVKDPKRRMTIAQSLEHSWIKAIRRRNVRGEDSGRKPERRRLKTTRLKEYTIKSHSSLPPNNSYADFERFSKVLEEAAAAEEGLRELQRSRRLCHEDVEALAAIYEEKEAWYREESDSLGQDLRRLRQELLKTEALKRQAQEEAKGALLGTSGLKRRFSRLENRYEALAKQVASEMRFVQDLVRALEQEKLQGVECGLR
Observed: enzyme activity
Action: inhibitor
Concentration: 0.5 µM
Relative to: control
| Compound | remaining activity [%] |
| --- | --- |
| c1ccc(-c2n[nH]c3c2oc2ccccc23)cc1 | 91.5 |
| O=c1cc(N2CCOCC2)oc2c(-c3ccccc3)cccc12 | 96.5 |
| O=C1Nc2ccccc2/C1=C\c1c(Cl)[nH]c2ccccc12 | 91.2 |
| O=Nc1c(-c2c(O)[nH]c3cc(Br)ccc23)[nH]c2ccccc12 | 84.9 |
| COc1ccc(COc2ccc(Cc3cnc(N)nc3N)cc2OC)cc1 | 104 |
| CCCCc1c(-c2ccc(OC)cc2)[nH]c2nccnc12 | 102 |
| CN(C)S(=O)(=O)c1ccc2c(c1)/C(=C/c1cc3c([nH]1)CCCC3)C(=O)N2 | 94.4 |
| N#Cc1cnc2cnc(NCc3cccnc3)cc2c1Nc1ccc(F)c(Cl)c1 | 101 |
| Cc1ccc(S(=O)(=O)/C=C/C#N)cc1 | 97.4 |
| CCCNC(=O)Nc1ccc(Oc2ncnc3cc(OC)c(OC)cc23)cc1Cl | 88.8 |

Sample 3
SMILES: CC(=O)N[C@@H](Cc1c[nH]c2ccccc12)C(=O)N[C@@H](CCC(=O)C=[N+]=[N-])C(=O)OC(C)C
Method: flow cytometry
Dose: dose not given
Relative to: vehicle
| item | cells | species | sample | relative MFI |
| --- | --- | --- | --- | --- |
| EOMES | CD8+ tumour-infiltrating lymphocytes | mouse, MC38-OVA tumour |  | 2.06 |
| CD122 |  | mice bearing MC38-OVA tumours | tumour-infiltrating CD8+ T cells | 1.49 |
| BCL6 |  | mice bearing MC38-OVA tumours | tumour-infiltrating CD8+ T cells | 1.59 |
| CD44 | CD8+ tumour-infiltrating lymphocytes | mouse, MC38-OVA tumour |  | 3.54 |
| CD28 |  | mice bearing MC38-OVA tumours | tumour-infiltrating CD8+ T cells | 1.42 |
| CD62L |  | mice bearing MC38-OVA tumours | tumour-infiltrating CD8+ T cells | 1.93 |

Sample 4
Species: human
Sample: microsomes or S9
Concentration: 2 µM
Time: 0.5 h
| Compound | remaining compound [%] |
| --- | --- |
| CCOC(=O)C1=C(C)N=C2CC(C)(C)CC(O)=C2C1C (stereo not drawn) | 70.3 |
| CCN(CC)CCCOC(=O)C1(c2ccc(F)cc2)CCCC1 | 81.1 |
| COc1ccc2c[nH]c(=O)c(-c3nc4ccccn4c3Nc3ccc(OC)c(OC)c3)c2c1 | 87.9 |
| Cc1ccc(C2=CC(c3cccc(Cl)c3)n3ncnc3N2)cc1 (stereo not drawn) | 4.41 |
| CCCC1(C)NC(=O)N(CC(=O)N(CC(C)C)CC(C)C)C1=O (stereo not drawn) | 1.69 |
| COC(CNC(=O)NCc1ncnn1C(C)(C)C)C(C)C (stereo not drawn) | > 99 |
| CCCNC(=O)[C@H](CC(C)C)NC(=S)NCCC | 67 |
| C[C@@H](NC(=O)c1cc(S(=O)(=O)N(C)C)c[nH]1)c1ncc[nH]1 | 82.9 |

A few entries again (sample 1):
| target | remaining binding |
| --- | --- |
| SRPK3 (Homo sapiens, UniProt Q9UPE1) | 100% |
| PIK3C2B (Homo sapiens, UniProt O00750) | 97% |
| PRKCE (Homo sapiens, UniProt Q02156) | 100% |
| ROCK2 (Homo sapiens, UniProt O75116) | 100% |
| CDK14 (Homo sapiens, UniProt O94921) | 100% |
| PAK6 (Homo sapiens, UniProt Q9NQU5) | 100% |
